Published values gathered from unrelated publications.
Protocols differ between the studies behind these lines.
Organism: Escherichia coli

| Compound | test | test system | conditions | scale | MIC |
| --- | --- | --- | --- | --- | --- |
| CC[C@H](C)[C@H](NC(=O)CNC(=O)[C@H](CC(=O)O)NC(=O)[C@H](CCCNC(=N)N)NC(=O)[C@@H](NC(=O)[C@H](CC(N)=O)NC(=O)[C@H](CCCNC(=N)N)NC(=O)CNC(=O)[C@@H](NC(=O)[C@H](CCCCN)NC(=O)[C@H](CCC(=O)O)NC(=O)[C@@H](NC(=O)[C@H](CCCCN)NC(=O)[C@H](CCCCN)NC(=O)[C@H](Cc1ccccc1)NC(=O)[C@@H](NC(=O)[C@H](CCCCN)NC(=O)[C@H](Cc1c[nH]c2ccccc12)NC(=O)[C@@H](N)CCCNC(=N)N)[C@@H](C)CC)[C@@H](C)CC)C(C)C)C(C)C)C(=O)N[C@H](C(=O)N[C@@H](CCCCN)C(=O)N[C@@H](C)C(=O)NCC(=O)N1CCC[C@H]1C(=O)N[C@@H](C)C(=O)N[C@H](C(=O)N[C@@H](C)C(=O)N[C@H](C(=O)N[C@H](C(=O)NCC(=O)N[C@@H](CCC(N)=O)C(=O)N[C@@H](C)C(=O)N[C@@H](C)C(=O)N[C@H](C(=O)N[C@H](C(=O)N[C@H](C(=O)N[C@@H](CCCCN)C(N)=O)C(C)C)C(C)C)[C@@H](C)O)C(C)C)C(C)C)C(C)C)[C@@H](C)CC | – | NCCP 16044 carbapenem-resistant | – | – | 1 µM |
| C[C@H]1COCCN1c1nc(NCc2cccnc2C(F)(F)F)c2cccnc2n1 | broth microdilution | EC1 | – | – | 128 µg/mL |
| C[C@@H](O)[C@H]1C(=O)N2C(C(=O)O)=C(S[C@@H]3CN[C@H](C(=O)Nc4cccc(C(=O)O)c4)C3)[C@H](C)[C@H]12 | – | BL21(DE3) carrying Ftu-1 | – | – | < 0.09 µg/mL |
| CC1(C)SC2C(NC(=O)C(NC(=O)C3=C(O)CN(c4ccccc4)C3=O)c3ccccc3)C(=O)N2C1C(=O)O (stereo not drawn) | broth microdilution | isolate IU, CTX-M-14, TEM-1 | with: clavulanic acid 6 µg/mL | – | > 200 µg/mL |
| CC(C)Oc1c(NC(=O)c2ccc(NC(=O)[C@H](CC(N)=O)NC(=O)c3cc(F)c(/N=N/c4c(F)cccc4F)c(F)c3)cc2)ccc(C(=O)N/N=C/c2ccc(C(=O)O)s2)c1O | – | BW25113 | 18 h, 37 °C, dark-adapted state | – | > 6.4 µg/mL |
| CC[C@H](C)[C@H](NC(=O)[C@H](CC(C)C)NC(=O)[C@H](CCCCN)NC(=O)[C@@H](NC(=O)[C@H](C)NC(=O)[C@H](CCC(=O)O)NC(=O)[C@H](Cc1c[nH]cn1)NC(=O)[C@@H](NC(=O)[C@H](CCCCN)NC(=O)[C@H](CCC(N)=O)NC(=O)[C@H](Cc1ccccc1)NC(=O)[C@@H](N)C(C)C)[C@@H](C)CC)[C@@H](C)CC)C(N)=O | broth microdilution | CCARM 1229 resistant | 18 h, 37 °C | – | > 128 µM |
| CC1(C)CC[C@]2(C(=O)O)CC[C@]3(C)C(=CC[C@@H]4[C@@]5(C)CC[C@H](O)C(C)(C)[C@@H]5CC[C@]43C)[C@@H]2C1 | – | BL21 pET28a-KPC-2 | – | – | 512 µg/mL |
| CC[C@H](C)[C@H](NC(=O)[C@H](Cc1c[nH]c2ccccc12)NC(=O)[C@@H](N)CCCCN)C(=O)N[C@H]1CSSC[C@@H](C(=O)N[C@@H](CCCNC(=N)N)C(=O)N[C@@H](Cc2c[nH]c3ccccc23)C(=O)N[C@@H](CCCNC(=N)N)C(=O)O)NC(=O)[C@H](Cc2ccc(O)cc2)NC(=O)[C@H]([C@@H](C)O)NC(=O)[C@H]([C@@H](C)CC)NC(=O)[C@H](Cc2c[nH]c3ccccc23)NC(=O)[C@H](CCCNC(=N)N)NC(=O)CNC(=O)[C@H](CCCNC(=N)N)NC(=O)[C@H](Cc2ccc(O)cc2)NC(=O)[C@H](Cc2c[nH]c3ccccc23)NC(=O)[C@H](CC(C)C)NC(=O)[C@H](CCCNC(=N)N)NC(=O)[C@H](CCCNC(=N)N)NC1=O | bacterial growth, broth dilution, OD600 | DH5α, LB medium | 16 h, 37 °C | – | 12.5 µM |
| CC[C@H](C)[C@H](NC(=O)[C@H](CC(C)C)NC(=O)[C@H](CCCNC(=N)N)NC(=O)[C@@H](N)CCCNC(=N)N)C(=O)N[C@@H](CCCNC(=N)N)C(=O)N[C@H](C(=O)N[C@@H](CC(C)C)C(=O)N[C@H](C(=O)NCC(=O)N1CCC[C@H]1C(=O)N[C@H](C(=O)N[C@H](C(=O)N[C@@H](Cc1ccc(O)cc1)C(=O)N[C@@H](CC(C)C)C(=O)N[C@@H](Cc1ccc(O)cc1)C(=O)N[C@@H](Cc1ccccc1)C(=O)N[C@@H](CCCCN)C(=O)N[C@@H](CC(C)C)C(=O)N[C@@H](CCC(N)=O)C(=O)N[C@@H](CC(C)C)C(=O)N[C@@H](CC(C)C)C(=O)N[C@@H](CCCCN)C(=O)N[C@@H](CCCCN)C(N)=O)[C@@H](C)CC)[C@@H](C)CC)[C@@H](C)O)[C@@H](C)O | broth microdilution | KCTC 1682, Mueller-Hinton broth | 24 h, 37 °C | – | 64 µM |
| CCCCCCC/C=C/C(=O)N1C(=O)/C(=C(/C)O)C(=O)C1Cc1ccc(OC(C)(C)C)cc1 (stereo not drawn) | – | K12 ΔtolC | – | – | 12.5 µg/mL |
| Cc1cc(-c2cn[nH]c2-c2cccc(OCc3cccc(C#N)c3)c2)cc(C)n1 | broth microdilution | ΔrfaC JW3596 | – | – | 0.06 µg/mL |
| O=C(O)c1cccc(C(=O)O)n1 | – | VIM-2 producer | 32 µg/mL, MIC of meropenem, with: meropenem | – | 0.125 µg/mL |
| CC[C@H](C)[C@H](N)C(=O)N[C@@H](CC(C)C)C(=O)NCC(=O)N[C@H](CCCNC(=N)N)C(=O)N[C@H](C(=O)N[C@@H](Cc1c[nH]c2ccccc12)C(=O)N[C@@H](CCCCN)C(=O)NCC(=O)N[C@H](C(=O)N[C@@H](CCCCN)C(=O)N[C@@H](CC(=O)O)C(=O)N[C@H](C(=O)N[C@@H](CC(C)C)C(N)=O)[C@@H](C)CC)[C@@H](C)CC)[C@@H](C)CC | broth microdilution | ATCC 25922 | with: NH4Cl 6 µM | – | 12.5 µM |
| N=C(N)c1ccc(OCc2ccccc2COc2ccc(C(=N)N)cc2)cc1 | – | BW25113 mcr-1 | compound alone | – | > 200 µg/mL |
| CC[C@H](C)[C@H](N)C(=O)N[C@@H](CCCNC(=N)N)C(=O)N[C@H](C(=O)N[C@@H](Cc1c[nH]c2ccccc12)C(=O)N[C@@H](Cc1c[nH]c2ccccc12)C(=O)N[C@@H](CCCCN)C(=O)N[C@H](C(=O)N[C@H](C(=O)N[C@@H](CCCNC(=N)N)C(=O)N[C@@H](CCCCN)C(=O)N[C@@H](Cc1c[nH]c2ccccc12)C(=O)N[C@@H](CCCCN)C(=O)N[C@@H](C)C(=O)N[C@H](C(=O)N[C@@H](Cc1c[nH]c2ccccc12)C(=O)N[C@@H](Cc1c[nH]cn1)C(N)=O)[C@@H](C)CC)C(C)C)[C@@H](C)CC)C(C)C | broth dilution | ATCC 25922, Mueller-Hinton broth | 24 h, 37 °C | – | 25 µM |
| CC[C@H](C)[C@H](NC(=O)CNC(=O)[C@H](CC(=O)O)NC(=O)[C@H](CCCNC(=N)N)NC(=O)[C@@H](NC(=O)[C@H](CC(N)=O)NC(=O)[C@H](CCC(=O)O)NC(=O)CNC(=O)[C@@H](NC(=O)[C@H](CCCCN)NC(=O)[C@H](CCC(=O)O)NC(=O)[C@@H](NC(=O)[C@H](CCCCN)NC(=O)[C@H](CCCCN)NC(=O)[C@H](Cc1ccccc1)NC(=O)[C@@H](NC(=O)[C@H](CCCCN)NC(=O)[C@H](Cc1c[nH]c2ccccc12)NC(=O)[C@@H](N)CCCNC(=N)N)[C@@H](C)CC)[C@@H](C)CC)C(C)C)C(C)C)C(=O)N[C@H](C(=O)N[C@@H](CCCCN)C(=O)N[C@@H](C)C(=O)NCC(=O)N1CCC[C@H]1C(=O)N[C@@H](C)C(=O)N[C@H](C(=O)N[C@@H](C)C(=O)N[C@H](C(=O)N[C@H](C(=O)NCC(=O)N[C@@H](CCC(N)=O)C(=O)N[C@@H](C)C(=O)N[C@@H](C)C(=O)N[C@H](C(=O)N[C@H](C(=O)N[C@H](C(=O)N[C@@H](CCCCN)C(N)=O)C(C)C)C(C)C)[C@@H](C)O)C(C)C)C(C)C)C(C)C)[C@@H](C)CC | – | K1 ATCC 700973, Mueller-Hinton broth | 16 h, 37 °C | growth inhibition over 99% | 2 µM |
| C[C@@H](O)[C@H](NC(=O)[C@H](Cc1c[nH]c2ccccc12)NC(=O)[C@H](Cc1c[nH]c2ccccc12)NC(=O)[C@H](Cc1c[nH]c2ccccc12)NC(=O)[C@@H](NC(=O)[C@H](Cc1c[nH]c2ccccc12)NC(=O)[C@H](CCCNC(=N)N)NC(=O)[C@@H](N)CCCNC(=N)N)[C@@H](C)O)C(=O)N[C@@H](Cc1c[nH]c2ccccc12)C(=O)N[C@@H](CCCNC(=N)N)C(=O)N[C@@H](CCCNC(=N)N)C(N)=O | – | UB1005 | 24 h, 37 °C | – | 2 µM |
| CC[C@H](C)[C@H](NC(=O)[C@H](CCCNC(=N)N)NC(=O)[C@H](CCCNC(=N)N)NC(=O)[C@H](CCCNC(=N)N)NC(=O)[C@H](CCCNC(=N)N)NC(=O)[C@H](CC(C)C)NC(=O)[C@H](CCCNC(=N)N)NC(=O)[C@H](CO)NC(=O)[C@@H](N)CO)C(=O)N[C@H](C(=O)N[C@@H](CC(C)C)C(=O)N[C@@H](CCCNC(=N)N)C(=O)N[C@@H](CCCNC(=N)N)C(=O)N[C@@H](CCCNC(=N)N)C(=O)N[C@@H](CCCNC(=N)N)C(=O)N[C@@H](Cc1ccccc1)C(=O)N[C@@H](CO)C(=O)N[C@@H](C)C(=O)N[C@@H](Cc1ccc(O)cc1)C(N)=O)C(C)C | checkerboard | – | 24 h, 37 °C, alone, rifampicin plate | – | 64 µM |
| CC[C@H](C)[C@H](NC(=O)[C@H](CCCCN)NC(=O)[C@H](CC(=O)O)NC(=O)[C@H](CC(C)C)NC(=O)[C@@H](NC(=O)[C@H](CC(N)=O)NC(=O)[C@H](CC(C)C)NC(=O)[C@@H](NC(=O)[C@H](Cc1ccccc1)NC(=O)[C@H](CCCCN)NC(=O)[C@H](CCCCN)NC(=O)CNC(=O)[C@H](C)NC(=O)[C@H](CC(N)=O)NC(=O)[C@H](CCCCN)NC(=O)[C@H](Cc1ccccc1)NC(=O)[C@H](CC(N)=O)NC(=O)[C@H](CCC(=O)O)NC(=O)[C@H](Cc1c[nH]c2ccccc12)NC(=O)[C@H](CC(C)C)NC(=O)[C@@H](N)CO)[C@@H](C)CC)[C@@H](C)CC)C(=O)N[C@@H](CCCNC(=N)N)C(N)=O | – | ATCC 8739 | overnight, 37 °C, with: 150 mM NaCl | – | 8 µM |
| CSCC[C@H](NC(=O)[C@H](CC(C)C)NC(=O)[C@H](CCCCN)NC(=O)[C@H](Cc1c[nH]c2ccccc12)NC(=O)[C@H](CC(N)=O)NC(=O)[C@H](CCCCN)NC(=O)CNC(=O)[C@H](CC(C)C)NC(=O)[C@H](CC(C)C)NC(=O)[C@H](CCCCN)NC(=O)[C@@H](N)CCCCN)C(=O)O | – | TG1 | – | – | > 25 µM |
| CC1(C)SC2C(NC(=O)C(NC(=O)C3=C(O)C(Cc4ccc(O)cc4)NC3=O)c3ccccc3)C(=O)N2C1C(=O)O (stereo not drawn) | broth microdilution | Keio mutant JW5086-3 | 18 h, ferrienterobactin permease gene | – | 25 µg/mL |

A few entries again:
| Compound | test | test system | conditions | scale | MIC |
| --- | --- | --- | --- | --- | --- |
| CC[C@H](C)[C@H](NC(=O)CNC(=O)[C@H](CC(=O)O)NC(=O)[C@H](CCCNC(=N)N)NC(=O)[C@@H](NC(=O)[C@H](CC(N)=O)NC(=O)[C@H](CCCNC(=N)N)NC(=O)CNC(=O)[C@@H](NC(=O)[C@H](CCCCN)NC(=O)[C@H](CCC(=O)O)NC(=O)[C@@H](NC(=O)[C@H](CCCCN)NC(=O)[C@H](CCCCN)NC(=O)[C@H](Cc1ccccc1)NC(=O)[C@@H](NC(=O)[C@H](CCCCN)NC(=O)[C@H](Cc1c[nH]c2ccccc12)NC(=O)[C@@H](N)CCCNC(=N)N)[C@@H](C)CC)[C@@H](C)CC)C(C)C)C(C)C)C(=O)N[C@H](C(=O)N[C@@H](CCCCN)C(=O)N[C@@H](C)C(=O)NCC(=O)N1CCC[C@H]1C(=O)N[C@@H](C)C(=O)N[C@H](C(=O)N[C@@H](C)C(=O)N[C@H](C(=O)N[C@H](C(=O)NCC(=O)N[C@@H](CCC(N)=O)C(=O)N[C@@H](C)C(=O)N[C@@H](C)C(=O)N[C@H](C(=O)N[C@H](C(=O)N[C@H](C(=O)N[C@@H](CCCCN)C(N)=O)C(C)C)C(C)C)[C@@H](C)O)C(C)C)C(C)C)C(C)C)[C@@H](C)CC | – | NCCP 16044 carbapenem-resistant | – | – | 1 µM |
| C[C@H]1COCCN1c1nc(NCc2cccnc2C(F)(F)F)c2cccnc2n1 | broth microdilution | EC1 | – | – | 128 µg/mL |
